# Measured values of several laboratories.
# Numbered parts are unrelated; each lists some results of a single study.

# Series 1
# Target: TAR DNA-binding protein 43, full length, His tag (TARDBP, Homo sapiens, UniProt Q13148, residues 1-414)
# Technique: RNA Bind-n-Seq
# Molecule type: RNA
# Sample: in vitro
# Tested at: 20 nM
# Notes: 6-mer, flanks averaged, single round
# With: 150 mM KCl
# Relative to: input library
# Reading: higher = stronger binding
Sequence,6-mer enrichment (R)
GUACGU,0.883
CUCGAU,0.56
AAUAGG,1.01
ACCAAU,0.666
UAGGCC,0.792
GGGCCU,1.9
UCGAUC,0.56
AGGCUU,0.703
GACCUC,0.655
AAGUUG,0.754
UUACAU,0.574
AGAUCG,0.822
GUAGUC,0.78
CGUAGU,0.748
CAGCAU,0.667
CAUGAA,0.739
CCGCGC,0.829
AUUUUA,0.666
AUUUGU,0.693
AGCUCC,0.662
CGAUCA,0.6
CUAAGA,0.665
GCCCAG,0.908

# Series 2
# Target: Sal-like protein 4, full length isoform B (SALL4, Homo sapiens, UniProt Q9UJQ4-2, residues 1-616)
# Technique: universal PBM
# Molecule type: double-stranded DNA, one strand shown
# Sample: in vitro
# Tested at: not given
# Notes: 8-mer, flanks averaged, mean of replicates
# Reading: higher = stronger binding
# Construct (chain): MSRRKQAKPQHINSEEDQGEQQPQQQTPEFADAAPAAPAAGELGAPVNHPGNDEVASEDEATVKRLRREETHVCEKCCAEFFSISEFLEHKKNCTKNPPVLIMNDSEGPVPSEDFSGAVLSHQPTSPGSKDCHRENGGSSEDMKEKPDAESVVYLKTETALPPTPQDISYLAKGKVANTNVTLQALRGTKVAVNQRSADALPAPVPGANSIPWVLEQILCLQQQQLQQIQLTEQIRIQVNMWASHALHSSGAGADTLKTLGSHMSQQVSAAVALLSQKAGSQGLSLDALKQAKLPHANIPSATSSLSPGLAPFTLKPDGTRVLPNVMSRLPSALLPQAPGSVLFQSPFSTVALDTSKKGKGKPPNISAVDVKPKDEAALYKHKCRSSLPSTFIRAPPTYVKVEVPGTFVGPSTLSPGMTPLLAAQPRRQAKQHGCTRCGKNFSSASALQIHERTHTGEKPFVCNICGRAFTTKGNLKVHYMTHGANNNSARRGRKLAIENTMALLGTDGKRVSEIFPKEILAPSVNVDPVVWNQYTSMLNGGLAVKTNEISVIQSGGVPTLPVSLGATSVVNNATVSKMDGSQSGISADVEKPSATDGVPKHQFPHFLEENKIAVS
Sequence,E-score
CAAGTCCA,-0.00739
GCATCCGC,-0.123
CATGCCTC,0.00689
GGCGATAA,0.0828
TATTTGAA,0.276
ACTTAAAT,0.336
GACAAGGA,0.148
GCGTATAA,0.175
CACTTGCA,0.0192
CTTATTGA,0.262
AGCGAGGA,-0.0446
TGCATCAA,0.102
ACGTAGGA,0.0325
CCGTATCC,-0.145
CCAATCGC,-0.0954
CCAGATAG,-0.0663
CATGGCCA,-0.0769
GGTACAAC,0.0371
CGCGGCAC,-0.264
TATACTAA,0.286
CACCCGCG,-0.237
CCTTCGAG,-0.241
AGCAGTGC,-0.134
CGTTATTA,0.382
ACCCCAGT,-0.172

# Series 3
# Target: RNA binding protein fox-1 homolog 2, RRM domain, GST-SBP tag (RBFOX2, Homo sapiens, UniProt O43251-10, residues 100-194)
# Technique: RNA Bind-n-Seq
# Molecule type: RNA
# Sample: in vitro
# Tested at: 365 nM
# Notes: natural RNA segment, single round, ends assumed
# Relative to: no-protein control
# Reading: higher = stronger binding
# Target sequence (chain): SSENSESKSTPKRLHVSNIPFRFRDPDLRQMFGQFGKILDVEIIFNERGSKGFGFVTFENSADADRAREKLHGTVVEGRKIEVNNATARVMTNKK
Sequence,RBNS enrichment (R)
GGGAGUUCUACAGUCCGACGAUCGCCAUGUGUUAAUUGUUAAAUAAAUUCUCCAAAGGGCUAAAAGUAAAUUACUUAUAAAUUUUUUAUAGUUGUAUUUUUGACCUGCCUUUUAUAUGUAUGAAUAUUUCAUAUGGAAUUCUCGGGUGCCAA,1.13
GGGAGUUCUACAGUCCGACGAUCCUACAAAGCUGUUCCCUGAUGUCACAGGUCCCUCCGACUCAUUUUCCAGGAGACUUUGCCUUGAGGGUGCCACAGGUGGAGAGAUAAAGAUAGCUUUUGAAGCUUGAACAUGGAAUUCUCGGGUGCCAA,0.32
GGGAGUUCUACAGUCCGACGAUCUUGAGUAUUAACCUUACAUUUUACCCGACUUAAGGAGGAAUAGUAGUGUAAGAGCUGCCCGGCUCCCUGGAGUAAAGCGCUACACGCAAGUUCCCAUAAAGCAAACAGGGUGGAAUUCUCGGGUGCCAA,0.718
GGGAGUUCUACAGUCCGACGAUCUAGAGAGAAAAGAGAGUGCGCUUUGGAAAUUUAUUCCAGUUUUCAGCCUACAGCAGAUUAUCAGCUCGGUGACUUUUCUUUCUGCCACCAUUUAGGUGAUGGUGUUUGAUUGGAAUUCUCGGGUGCCAA,0.307
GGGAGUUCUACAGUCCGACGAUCCCUGCCACUUUAUUGAGGUGUUAUUAGCACUUUUGUUCAUAAUUCAUAAUUUUGUAAUAAUCUUUAUUUUCCCUUAGCAAACCAAGUAAAAAUAAACUAGUAAAAGAUUAUGGAAUUCUCGGGUGCCAA,0.415
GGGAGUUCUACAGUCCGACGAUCGGGGUAGUUGAUCUUCAGUCUCCAGGAGCCUGGGUACCGAGAUGAGAAAAGCCUGAACUAUUUAUUCAAAACAUGACCACUCUGGGCUAUAGAAGAUGCUGAGUGUGUUUUGGAAUUCUCGGGUGCCAA,1.14
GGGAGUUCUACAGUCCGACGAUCCUGUGGGGACAGUGGCUACUGAGAAAUCUACAUUGUAAGAGAAGACAAUGAAAGACCCUGGCCCUGUCUCUCAAAACUUAACUUUCUCUGUAUGAUUUUUUUUUUAAAAAUGGAAUUCUCGGGUGCCAA,0.663
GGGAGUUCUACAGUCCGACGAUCAGAGAGUUACAGGAAUAGAGAACCUGUUUUUGAGACAUGUUGUCAUUUUGAUGAGAUAACCUUCAUCUCGUUACUGAAAUAUCUAACUUCAGCUAGAUAUGAGCUAUGCAUGGAAUUCUCGGGUGCCAA,1.12

# Other studies, line by line
Molecule,target,assay,system,setting,scale,endpoint,result
"PhoQ, residues 284 288 289 292 302 303 STVVAA","PhoP, residues 12 14 15 18 19 STHWV (Escherichia coli, UniProt P23836)","Sort-seq, item: YFP reporter",E. coli,"PhoQ-PhoP variant library, with: 10 µM Mg2+","relative to: high Mg2+ state, higher = stronger signaling",fold induction,0.857

# For quick reference, copied from above (series 1):
Sequence,6-mer enrichment (R)
AUUUUA,0.666
AUUUGU,0.693
AGCUCC,0.662
CGAUCA,0.6
CUAAGA,0.665
